Assay results gathered from unrelated publications.
Each numbered part is a random draw from the data of one study; scales do not carry over between parts. Positions count from the first letter of the parent shown.

Series 1 — target: CCNB2, cyclin fold, Cln2 fusion (human); method: yeast growth competition, sequencing; sample: yeast; setting: weak parent motif; relative to: not given; reading: higher = stronger binding
Parent: CDKN1B docking peptide (human); PSACRNLFGPVDH; partner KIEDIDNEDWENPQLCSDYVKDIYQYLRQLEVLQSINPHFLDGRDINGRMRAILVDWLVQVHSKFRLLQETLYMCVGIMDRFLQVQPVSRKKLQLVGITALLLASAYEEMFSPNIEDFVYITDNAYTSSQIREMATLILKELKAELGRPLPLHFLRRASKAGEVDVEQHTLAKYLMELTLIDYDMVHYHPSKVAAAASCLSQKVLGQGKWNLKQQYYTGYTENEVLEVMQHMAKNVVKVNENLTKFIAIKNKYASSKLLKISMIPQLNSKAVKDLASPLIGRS
| Change | normalised enrichment score |
| --- | --- |
| PSACRNLFSPVDH [G9S] | -0.216 |
| PSAARNLFGPVDH [C4A] | 0.143 |
| PSACRWLFGPVDH [N6W] | 0.19 |
| PYACRNLFGPVDH [S2Y] | -0.0966 |
| PSACRNLFGPDDH [V11D] | -0.175 |
| PSACRNLFTPVDH [G9T] | 0.321 |
| PSACRNLFGPVMH [D12M] | 0.338 |
| SSACRNLFGPVDH [P1S] | -0.247 |
| PSACRNLFYPVDH [G9Y] | 0.536 |
| PSACRNLMGPVDH [F8M] | -0.136 |
| PSKCRNLFGPVDH [A3K] | 0.151 |
| PVACRNLFGPVDH [S2V] | 0.379 |
| PSACRNLFGPVRH [D12R] | 0.248 |
| PSACRNPFGPVDH [L7P] | -0.244 |
| LSACRNLFGPVDH [P1L] | -0.123 |
| PSACRNIFGPVDH [L7I] | 0.355 |
| ISACRNLFGPVDH [P1I] | -0.282 |
| PSACRNLFGEVDH [P10E] | -0.197 |
| PKACRNLFGPVDH [S2K] | 0.43 |
| PSACRNLFGPVDL [H13L] | -0.152 |
| PSACLNLFGPVDH [R5L] | -0.236 |
| PSACRNLFGPADH [V11A] | 0.107 |
| PEACRNLFGPVDH [S2E] | -0.43 |
| PSACRNLFGWVDH [P10W] | 0.194 |
| PSACRQLFGPVDH [N6Q] | 0.202 |

Series 2 — method: RNA Bind-n-Seq; molecule type: RNA; sample: in vitro; tested at: 365 nM; relative to: no-protein control; reading: higher = stronger binding
Target: RNA binding protein fox-1 homolog 2, RRM domain, GST-SBP tag (RBFOX2, Homo sapiens, UniProt O43251-10, residues 100-194)
Setting: natural RNA segment, single round, ends assumed
Constant ends, left off below: GGGAGUUCUACAGUCCGACGAUC … UGGAAUUCUCGGGUGCCAA
Target sequence (chain): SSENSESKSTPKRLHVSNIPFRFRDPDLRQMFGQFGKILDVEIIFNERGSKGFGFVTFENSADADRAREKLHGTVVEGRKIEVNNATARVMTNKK
| Strand | RBNS enrichment (R) |
| --- | --- |
| UCUAGUUGACUUUUCUCUUAGCCUGAAUGUGGACGUUGAAACAUAUCACUUCAGGGCUUGGAAAAGUCAGUCAACUUGACGUACAUUUUUAGUGACAUUUUAAAAGCAGU | 0.426 |
| UAAAAAAAUGGAAUUUAAAGGAAGGCUUGUGUCACCUUUUGACUAUAAAUAAAUCCUUUCUACUGGACUUUGCAGUAGUCCUUUCUGGGUGAGCUCUGGGCCGGGCAUGG | 0.907 |
| GGAGGGAGGAAGCUUAUUAGGUUCACUGUUGAAUGAUGAUUGAAGAGUACCUGCUGCUGUAUCUUGGAAGAUGACAACAUCCUUUUUCAUUACUGUUUGAUUGAAAAUAA | 2.28 |
| UUCUUUCCUCCCACUUCCACCCCAACAUAGAGUAGUAUUUGCUUUUUAGUCCAUUUUGUUUUCAAUACGAUUUAAUAUCGAUCAGAGUAAUUCUUUUGUACAUUGAAAUG | 0.597 |
| UACGGGCAGGCUCUAGCAACUUUCCGUGUAUGGACCUCGUUUUUUGCUGUUUUGUGUUUAAUUAGUAUAUUGUUCAUGCCUCUCUUCUGCAGUGUCUCAUCUCAUAGACU | 0.733 |
| AAAAAAAUGAUUUGCUCUUUGUGAACACACAAUUAUGAAUUUCAUGGCGAUGUUAACAAUUCUGCAUUUAGACAAGGUUUUGCAAAAGAUAUUGUGUUAGAAAAAUUUGA | 0.585 |
| CCCGUGACUGGGCAUCCCUCACCAGCUACUUUGACAUGCACACUGCCUGACGCUUCUCCACCCAGUGAUUGUGCUCCUGUCCCAAAGCACCCCGCUCAAGUCUCCCACCC | 1.27 |
| AAGAAAAUUCUAGCCAUGACCAGUGGUCCCUCAGAGCUAACCAUCUCUGAGGCAUUGUGGUGGUCCCUUGUCUGAUAAAUAAAUAAUGAAUAAAUAAAAGUUAUAUCAGA | 0.413 |
| GAAUGAAUCCAGGGUUUUUCUACUGUUCGUCUGUCCAGGGGUCCCUGAGAUCUGGGCUCCCUUACAUUCUAGACCUAUGUCCCCCCCCAUGGAAGAGAAGAGAAGAAUGA | 0.736 |
| AAGAAAGGACUGUCCGUCUCCCUCUGUCUCCUCUCCCCCAAACCCAGCCUCCACCCGCACAAAGGGGCUCUAAAUCCCAGGCCUCAUCUCCCCACUGGCAGUCCGUGCUC | 1.11 |
| AGAUGUUAAGUGUAACAGAUAAUUGGAGCUACGAGCCAUUCAGCUUCAGCCUUUCCAGACCACACACGAGACAUUAACCAUCCCAUGGAGAAGUUUACAUGGUGACUGUU | 0.24 |
| GGCUCAGGCCUUGGCCCUCUAGGCAGGGAAGCUGGACUGACCAUAUCUGCUGGGCAUCUGAUCUGCCUGCCACGAGGUCCAGACUCUUCUGCAUCCACCUAUGGCAUCUG | 0.785 |

Series 3 — method: protein binding microarray; molecule type: double-stranded DNA, one strand shown; sample: in vitro; tested at: not given; relative to: not given; reading: higher = stronger binding
Target: Histone acetyltransferase KAT6A, both winged helices, GST fusion (KAT6A, Homo sapiens, UniProt Q92794, residues 1-181)
Setting: 8-mer, flanks averaged, mean of 2 arrays, mostly near background
Construct (chain): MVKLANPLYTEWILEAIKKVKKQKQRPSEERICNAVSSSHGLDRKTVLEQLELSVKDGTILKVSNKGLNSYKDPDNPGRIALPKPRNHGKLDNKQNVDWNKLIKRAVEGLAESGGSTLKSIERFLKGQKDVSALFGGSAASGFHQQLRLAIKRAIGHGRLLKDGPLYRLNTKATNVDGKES
| Strand | E-score |
| --- | --- |
| CCCGCGAG | 0.295 |
| CATAACCC | -0.0917 |
| CATGAGAA | -0.0425 |
| CTTGTTCC | 0.0125 |
| CCCGTGAA | 0.165 |
| AGTTCGGG | -0.0816 |
| GACGAGAC | -0.061 |
| GACTCGCC | 0.0728 |
| AATCAGGA | -0.065 |
| GCGGCTCA | 0.183 |
| AATTCGGC | 0.0581 |
| AGTAATCA | 0.00123 |
| GCCTATTA | 0.0264 |
| AGCGTGTG | 0.0619 |
| ACCTGAGA | -0.275 |
| TCACATGA | -0.094 |
| CTGTTACA | 0.14 |
| AAGCTTTC | 0.136 |
| CAGGAATC | -0.16 |
| AGGAGCCT | -0.00807 |
| CTGGAATA | -0.131 |

Series 4 — method: aptamer microarray, sandwich; molecule type: DNA with 2'F-ANA; sample: in vitro; tested at: 200 nM; added: Cy3 exosite-II aptamer, 400 nM; reading: higher = stronger binding; strand: GGTTGGTGTGGTTGG
Target: Prothrombin, mature alpha-thrombin (F2, Homo sapiens, UniProt P00734)
Setting: whole 15-mer aptamer, many near background
| Modification | mean fluorescence intensity [a.u.] |
| --- | --- |
| 2'F-ANA at 1 2 3 5 9 10 12 14 15 | 46.1 |
| 2'F-ANA at 1 2 3 6 7 8 10 14 | 56 |
| 2'F-ANA at 1 2 4 8 9 13 14 15 | 95.3 |
| 2'F-ANA at 1 2 5 7 9 11 13 14 15 | 52.9 |
| 2'F-ANA at 1 2 6 8 9 12 14 15 | 69.1 |
| 2'F-ANA at 3 4 5 8 12 15 | 213 |
| 2'F-ANA at 1 2 7 8 10 11 12 | 78.5 |
| 2'F-ANA at 1 2 4 5 7 8 10 12 13 14 | 73 |
| 2'F-ANA at 2 4 8 9 10 12 13 14 15 | 58.9 |
| 2'F-ANA at 1 2 6 7 9 12 13 14 | 58.7 |
| 2'F-ANA at 1 2 3 4 5 7 8 9 10 12 13 14 | 76.4 |
| 2'F-ANA at 1 4 5 8 9 12 14 15 | 47.8 |
| 2'F-ANA at 2 3 7 10 11 12 14 | 313 |
| 2'F-ANA at 3 5 6 7 13 15 | 75 |
| 2'F-ANA at 4 8 9 10 13 14 15 | 67.2 |
| 2'F-ANA at 4 5 8 9 11 12 13 15 | 124 |
| 2'F-ANA at 2 3 4 6 8 9 10 12 14 | 176 |
| 2'F-ANA at 1 2 3 4 5 7 8 10 12 13 14 15 | 50.3 |
| 2'F-ANA at 5 6 7 8 9 10 14 | 45.8 |
| 2'F-ANA at 2 3 9 13 14 | 437 |

Other studies, line by line
| Substance | target | assay | system | conditions | how to read | quantity | result |
| --- | --- | --- | --- | --- | --- | --- | --- |
| PhoQ, residues 284 288 289 292 302 303 SCEHLI | PhoP, residues 12 14 15 18 19 TPLRH (Escherichia coli, UniProt P23836) | Sort-seq, measured: YFP reporter | E. coli | PhoQ-PhoP variant library, added: 10 µM Mg2+ | relative to: high Mg2+ state, higher = stronger signaling | fold induction | 0.524 |

Some of these lines once more (series 2):
| Strand | RBNS enrichment (R) |
| --- | --- |
| UCUAGUUGACUUUUCUCUUAGCCUGAAUGUGGACGUUGAAACAUAUCACUUCAGGGCUUGGAAAAGUCAGUCAACUUGACGUACAUUUUUAGUGACAUUUUAAAAGCAGU | 0.426 |
| UAAAAAAAUGGAAUUUAAAGGAAGGCUUGUGUCACCUUUUGACUAUAAAUAAAUCCUUUCUACUGGACUUUGCAGUAGUCCUUUCUGGGUGAGCUCUGGGCCGGGCAUGG | 0.907 |
| GGAGGGAGGAAGCUUAUUAGGUUCACUGUUGAAUGAUGAUUGAAGAGUACCUGCUGCUGUAUCUUGGAAGAUGACAACAUCCUUUUUCAUUACUGUUUGAUUGAAAAUAA | 2.28 |
| UUCUUUCCUCCCACUUCCACCCCAACAUAGAGUAGUAUUUGCUUUUUAGUCCAUUUUGUUUUCAAUACGAUUUAAUAUCGAUCAGAGUAAUUCUUUUGUACAUUGAAAUG | 0.597 |
| UACGGGCAGGCUCUAGCAACUUUCCGUGUAUGGACCUCGUUUUUUGCUGUUUUGUGUUUAAUUAGUAUAUUGUUCAUGCCUCUCUUCUGCAGUGUCUCAUCUCAUAGACU | 0.733 |
| AAAAAAAUGAUUUGCUCUUUGUGAACACACAAUUAUGAAUUUCAUGGCGAUGUUAACAAUUCUGCAUUUAGACAAGGUUUUGCAAAAGAUAUUGUGUUAGAAAAAUUUGA | 0.585 |
| CCCGUGACUGGGCAUCCCUCACCAGCUACUUUGACAUGCACACUGCCUGACGCUUCUCCACCCAGUGAUUGUGCUCCUGUCCCAAAGCACCCCGCUCAAGUCUCCCACCC | 1.27 |
| AAGAAAAUUCUAGCCAUGACCAGUGGUCCCUCAGAGCUAACCAUCUCUGAGGCAUUGUGGUGGUCCCUUGUCUGAUAAAUAAAUAAUGAAUAAAUAAAAGUUAUAUCAGA | 0.413 |
| GAAUGAAUCCAGGGUUUUUCUACUGUUCGUCUGUCCAGGGGUCCCUGAGAUCUGGGCUCCCUUACAUUCUAGACCUAUGUCCCCCCCCAUGGAAGAGAAGAGAAGAAUGA | 0.736 |
| AAGAAAGGACUGUCCGUCUCCCUCUGUCUCCUCUCCCCCAAACCCAGCCUCCACCCGCACAAAGGGGCUCUAAAUCCCAGGCCUCAUCUCCCCACUGGCAGUCCGUGCUC | 1.11 |
| AGAUGUUAAGUGUAACAGAUAAUUGGAGCUACGAGCCAUUCAGCUUCAGCCUUUCCAGACCACACACGAGACAUUAACCAUCCCAUGGAGAAGUUUACAUGGUGACUGUU | 0.24 |
